Measured values pooled from the literature.
Numbers after ± are the reported error.
U2AF2: U2AF2 148-342 (Homo sapiens, UniProt P26368)
Sequence of UniProt P26368 (whole entry, looked up): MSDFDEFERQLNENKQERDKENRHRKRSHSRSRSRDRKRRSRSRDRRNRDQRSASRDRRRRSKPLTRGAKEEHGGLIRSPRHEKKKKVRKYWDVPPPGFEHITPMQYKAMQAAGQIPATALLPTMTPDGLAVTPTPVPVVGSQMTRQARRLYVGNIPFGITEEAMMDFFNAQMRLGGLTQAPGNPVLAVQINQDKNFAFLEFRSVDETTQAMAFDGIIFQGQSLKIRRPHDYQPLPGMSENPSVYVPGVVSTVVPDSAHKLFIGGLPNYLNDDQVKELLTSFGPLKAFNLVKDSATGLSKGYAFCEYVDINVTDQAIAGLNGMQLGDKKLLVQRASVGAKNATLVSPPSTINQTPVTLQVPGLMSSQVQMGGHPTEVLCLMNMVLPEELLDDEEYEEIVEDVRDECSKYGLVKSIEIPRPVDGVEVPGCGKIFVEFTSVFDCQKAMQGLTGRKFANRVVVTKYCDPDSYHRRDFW
B1: human ADP/ATP translocase 4; sequence looked up; chain MHREPAKKKAEKRLFDASSFGKDLLAGGVAAAVSKTAVAPIERVKLLLQVQASSKQISPEARYKGMVDCLVRIPREQGFFSFWRGNLANVIRYFPTQALNFAFKDKYKQLFMSGVNKEKQFWRWFLANLASGGAAGATSLCVVYPLDFARTRLGVDIGKGPEERQFKGLGDCIMKIAKSDGIAGLYQGFGVSVQGIIVYRASYFGAYDTVKGLLPKPKKTPFLVSFFIAQVVTTCSGILSYPFDTVRRRMMMQSGEAKRQYKGTLDCFVKIYQHEGISSFFRGAFSNVLRGTGGALVLVLYDKIKEFFHIDIGGR
B2: human SND1; sequence looked up; chain ASSAQSGGSSGGPAVPTVQRGIIKMVLSGCAIIVRGQPRGGPPPERQINLSNIRAGNLARRAAATQPDAKDTPDEPWAFPAREFLRKKLIGKEVCFTIENKTPQGREYGMIYLGKDTNGENIAESLVAEGLATRREGMRANNPEQNRLSECEEQAKAAKKGMWSEGNGSHTIRDLKYTIENPRHFVDSHHQKPVNAIIEHVRDGSVVRALLLPDYYLVTVMLSGIKCPTFRREADGSETPEPFAAEAKFFTESRLLQRDVQIILESCHNQNILGTILHPNGNITELLLKEGFARCVDWSIAVYTRGAEKLRAAERFAKERRLRIWRDYVAPTANLDQKDKQFVAKVMQVLNADAIVVKLNSGDYKTIHLSSIRPPRLEGENTQDKNKKLRPLYDIPYMFEAREFLRKKLIGKKVNVTVDYIRPASPATETVPAFSERTCATVTIGGINIAEALVSKGLATVIRYRQDDDQRSSHYDELLAAEARAIKNGKGLHSKKEVPIHRVADISGDTQKAKQFLPFLQRAGRSEAVVEYVFSGSRLKLYLPKETCLITFLLAGIECPRGARNLPGLVQEGEPFSEEATLFTKELVLQREVEVEVESMDKAGNFIGWLHIDGANLSVLLVEHALSKVHFTAERSSYYKSLLSAEEAAKQKKEKVWAHYEEQPVEEVMPVLEEKERSASYKPVFVTEITDDLHFYVQDVETGTQLEKLMENMRNDIASHPPVEGSYAPRRGEFCIAKFVDGEWYRARVEKVESPAKIHVFYIDYGNREVLPSTRLGTLSPAFSTRVLPAQATEYAFAFIQVPQDDDARTDAVDSVVRDIQNTQCLLNVEHLSAGCPHVTLQFADSKGDVGLGLVKEGLVMVEVRKEKQFQKVITEYLNAQESAKSARLNLWRYGDFRADDADEFGYSR
B3: PP6 regulatory subunit 2 (human); sequence looked up; chain MFWKFDLNTTSHVDKLLDKEHVTLQELMDEDDILQECKAQNQKLLDFLCRQQCMEELVSLITQDPPLDMEEKVRFKYPNTACELLTCDVPQISDRLGGDESLLSLLYDFLDHEPPLNPLLASFFSKTIGNLIARKTEQVITFLKKKDKFISLVLKHIGTSALMDLLLRLVSCVEPAGLRQDVLHWLNEEKVIQRLVELIHPSQDEDRQSNASQTLCDIVRLGRDQGSQLQEALEPDPLLTALESQDCVEQLLKNMFDGDRTESCLVSGTQVLLTLLETRRVGTEGLVDSFSQGLERSYAVSSSVLHGIEPRLKDFHQLLLNPPKKKAILTTIGVLEEPLGNARLHGARLMAALLHTNTPSINQELCRLNTMDLLLDLFFKYTWNNFLHFQVELCIAAILSHAAREERTEASGSESRVEPPHENGNRSLETPQPAASLPDNTMVTHLFQKCCLVQRILEAWEANDHTQAAGGMRRGNMGHLTRIANAVVQNLERGPVQTHISEVIRGLPADCRGRWESFVEETLTETNRRNTVDLVSTHHLHSSSEDEDIEGAFPNELSLQQAFSDYQIQQMTANFVDQFGFNDEEFADQDDNINAPFDRIAEINFNIDADEDSPSAALFEACCSDRIQPFDDDEDEDIWEDSDTRCAARVMARPRFGAPHASESCSKNGPERGGQDGKASLEAHRDAPGAGAPPAPGKKEAPPVEGDSEGAMWTAVFDEPANSTPTAPGVVRDVGSSVWAAGTSAPEEKGWAKFTDFQPFCCSESGPRCSSPVDTECSHAEGSRSQGPEKASQASYFAVSPASPCAWNVCVTRKAPLLASDSSSSGGSHSEDGDQKAASAMDAVSRGPGREAPPLPTVARTEEAVGRVGCADSRLLSPACPAPKEVTAAPAVAVPPEATVAITTALSKAGPAIPTPAVSSALAVAVPLGPIMAVTAAPAMVATLGTVTKDGKTDAPPEGAALNGPV
Sequence of UniProt P13393 (whole entry, looked up): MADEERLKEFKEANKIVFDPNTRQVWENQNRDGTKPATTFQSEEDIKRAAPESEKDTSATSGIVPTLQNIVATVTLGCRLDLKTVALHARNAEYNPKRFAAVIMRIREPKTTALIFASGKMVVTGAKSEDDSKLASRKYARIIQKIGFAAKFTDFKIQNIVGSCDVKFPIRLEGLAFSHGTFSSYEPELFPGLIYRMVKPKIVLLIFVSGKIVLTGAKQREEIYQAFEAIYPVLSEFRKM

CUUUCCAUU (ssRNA) — Kd (U2AF2; sequencing of bound RNA; RNA; motif only): 7.2 µM
Peginesatide — Emax (UT7/EPO; phosphorylation, agonist, item: phospho-GSK-3β; 10 min; reference: rHuEPO maximum): 96 ± 3%
AUGCUUAUU (ssRNA) — Kd (U2AF2; sequencing of bound RNA; RNA; motif only): 6.62 µM
B1 (human ADP/ATP translocase 4) — log2 fold change (PP6C (human); co-immunoprecipitation, IP-MS; CYB5R4 knockout cells; concentration not given; reference: CYB5R4 knockout over parental): -0.39
QGRWDHETIV — binding intensity (construct, MBP fusion, human SCRIB, PDZ 3-4; automated holdup; peptide, crude extract; concentration not given, corrected by standard peak, unit not given; reference: biotin control resin, higher = stronger binding): 0.395
B2 (human SND1) — log2 fold change (PP6C (human); co-immunoprecipitation, IP-MS; CYB5R4 knockout cells; concentration not given; reference: CYB5R4 knockout over parental): 0.14
maraviroc — protein level (Western blot; HIV-infected mice, somatosensory cortex; i.p., 120 mg/kg twice daily, 3 weeks post infection; reference: HIV-infected untreated mice, decrease): 2.91 fold
B3 (PP6 regulatory subunit 2) — log2 fold change (PP6C (human); co-immunoprecipitation, IP-MS; CYB5R4 knockout cells; concentration not given; reference: CYB5R4 knockout over parental): -1.09
TCCTGAAGGGACGCCTATAAAAGGTCCTATCGTCGTCAAGTCAATCGGTCC (dsDNA; 5'-amino-C6 primer) — Kd (SPT15 full length assumed (Saccharomyces cerevisiae, UniProt P13393); array; double-stranded DNA, one strand shown; TBP alone): 0.00494 ± 0.00078 µM
heparin sodium — ACT AUEC (human; intravenous infusion, 8 IU/kg/h, day 1 to 6): 16400 h·s
NRVDSKETEC — binding intensity (construct, MBP fusion, human SCRIB, PDZ 3-4; automated holdup; peptide, crude extract; concentration not given, corrected by standard peak, unit not given; reference: biotin control resin, higher = stronger binding): 0.325
colistin — MIC (Escherichia coli; broth microdilution; clinical isolate RKI-No_607/16): ≤ 0.5 µg/mL

Repeated from above:
B3 (PP6 regulatory subunit 2) — log2 fold change (PP6C (human); co-immunoprecipitation, IP-MS; CYB5R4 knockout cells; concentration not given; reference: CYB5R4 knockout over parental): -1.09
